Measured values collected from several papers.
Compare with care: the assays were run in different laboratories. “And” joins repeats or separate records; there may be more than shown. Numbers after ± are the reported error.
icl: Isocitrate lyase (icl, Mycobacterium tuberculosis, UniProt P9WKK7)
OPRK1: Kappa-type opioid receptor (OPRK1, Homo sapiens, UniProt P41145)
aac: Aminoglycoside 2'-N-acetyltransferase (aac, Mycobacterium tuberculosis, UniProt P9WQG9)
uncharacterized protein: uncharacterized protein (Aptenodytes forsteri, UniProt A0A087QWN2)
Slc6a2: Transporter (Slc6a2, Rattus norvegicus, UniProt Q63380)

| SMILES | target | test | test system | setting | scale | measurement | result |
| --- | --- | --- | --- | --- | --- | --- | --- |
| C[C@]12C=CC3=C4CCC(=O)C=C4CC[C@H]3[C@@H]1CC[C@@H]2O | WD repeat-containing protein 55 (WDR55, Homo sapiens, UniProt Q9H6Y2) | binding, affinity selection mass spectrometry |  | 100 nM, pooled screen | relative to: other proteins | fold change | 60.3 |
| O=C(N/N=C/c1cc2c(s1)CCCC2)c1cccs1 | 1-deoxy-D-xylulose-5-phosphate synthase (Mycobacterium tuberculosis, UniProt P9WNS3) | inhibitor |  | concentration not given |  | remaining activity | 30% |
| O=C(Cc1ccc2cccnc2c1)c1ccc(O)cc1O | icl | thermal shift, SYPRO Orange |  | 1 mM, pH 7.5, 1 mM MgCl2, protein 20 µM |  | delta Tm | > 0.5 °C |
| Cl.O=C(N[C@H]1CC[C@@]2(O)[C@H]3Cc4ccc(O)c5c4[C@@]2(CCN3CC2CC2)[C@H]1O5)c1ccc(Br)s1 | OPRK1 | radioligand binding | CHO membranes |  | relative to: Ki µ over Ki κ | selectivity ratio | 4 |
| Clc1ccc(COc2cccc(CNCc3cccnc3)c2)cc1 | aac | neomycin acetylation, inhibitor |  | added: neomycin |  | highest concentration without inhibition | > 200 µM |
| Brc1ccc2c(c1)C(c1ccccn1)=NCc1c(-c3cnco3)ncn1-2 | GABA-A receptor benzodiazepine site, rat | radioligand binding | brain homogenate | 10 µM, added: [3H]flunitrazepam |  | inhibition | 93.4% |
| COc1ccc(OCC(=O)c2c(O)cc(O)cc2O)cc1 | icl | thermal shift, SYPRO Orange |  | 1 mM, pH 7.5, 1 mM MgCl2, protein 20 µM |  | delta Tm | > 0.5 °C |
| C[C@]12CCC(=O)C=C1CC[C@@H]1[C@@H]2CC[C@]2(C)C(=O)CC[C@@H]12 | uncharacterized protein |  |  | Aptenodytes forsteri |  | kon | 3.5e+07 ± 9e+13 M⁻¹ s⁻¹ |
| Cl.O=C(N[C@H]1CC[C@@]2(O)[C@H]3Cc4ccc(O)c5c4[C@@]2(CCN3CC2CC2)[C@H]1O5)c1ccc(C(F)(F)F)s1 | OPRK1 | radioligand binding | CHO membranes |  | relative to: Ki µ over Ki κ | selectivity ratio | 5.26 |
| Nc1ccc([C@H](O)[C@@H](N)CO)cc1 | icl | thermal shift, SYPRO Orange |  | 1 mM, pH 7.5, 1 mM MgCl2, protein 20 µM |  | delta Tm | > 0.5 °C |
| C[C@]12CC[C@H]3[C@@H](CCC4=CC(=O)CC[C@@]43CO)[C@@H]1CCC2=O | uncharacterized protein |  |  | Aptenodytes forsteri |  | kon | 5.5e+07 ± 1.6e+14 M⁻¹ s⁻¹ |
| C/C=C1/CN2CC[C@]34C(=C(C(=O)OC)[C@H]1C[C@H]23)Nc1ccc(I)cc14 | OPRK1 | [3H]diprenorphine competition binding | CHO cell membranes |  | relative to: Ki MOR over Ki KOR | selectivity ratio | 164 |
| COc1ccc2c(c1)[nH]c1c(C)nccc12 | luciferase |  |  | up to 20 µM |  | luciferase activity | no effect |
| COc1ccsc1CNCC[C@@]1(c2ccccn2)CCOC2(CCCC2)C1 | Mu-type opioid receptor (Oprm1, Mus musculus, UniProt P42866) | GIRK current, perforated patch clamp | AtT20 cells | 80% receptor knockdown, unit not given | relative to: somatostatin response | Emax | 0.33 ± 0.01 |
| CCC(C(=O)c1ccc2c(c1)OCO2)N(C)C (stereo not shown) | Slc6a2 | substrate release, releaser | rat brain synaptosomes | added: [3H]MPP+ 9 nM |  | EC50 | inactive |
| CCCCCCCC[C@H]1O[C@H]1C/C=C/C=C/[C@H](O)CC(=O)NC1=C[C@](C)(CC)OC1=O | Na(+)-translocating NADH-quinone reductase subunit B, whole Na+-NQR complex (nqrB, Vibrio cholerae serotype O1, UniProt Q9KPS2) | isothermal titration calorimetry |  | 20 °C, 50 µM |  | ΔG | -10 kcal/mol |
| COc1ccc(CC(=O)Nc2ccc(O)cc2C(=O)O)cc1 | icl | thermal shift, SYPRO Orange |  | 1 mM, pH 7.5, 1 mM MgCl2, protein 20 µM |  | delta Tm | > 0.5 °C |
| CN[C@]1(c2ccccc2Cl)CCCCC1=O | OPRK1 | radioligand binding, agonist, radioligand displacement |  | 30 µM |  | inhibition | 57% |
| CNC(C)C(=O)c1ccc2c(c1)OCO2 (stereo not shown) | Slc6a2 | substrate release, releaser | rat brain synaptosomes |  |  | maximal release | 100% |
| c1ccc2cc([C@]34CNC[C@H]3C4)ccc2c1 | Sodium-dependent dopamine transporter (SLC6A3, Homo sapiens, UniProt Q01959, F326A) | inhibitor, [3H]dopamine uptake |  | 100 µM, F326A mutant | relative to: no inhibitor | dopamine uptake | -3.6% and 1.49% and -0.309% |
| CC(=O)N[C@H]1C(O)O[C@H](CO)[C@@H](O)[C@@H]1O (stereo partly shown) | lacto-N-biose phosphorylase | substrate |  |  |  | Km | 19.2 ± 2.38 mM |
| O=C(COc1ccccc1Br)c1ccc(O)cc1O | icl | thermal shift, SYPRO Orange |  | 1 mM, pH 7.5, 1 mM MgCl2, protein 20 µM |  | delta Tm | > 0.5 °C |
| Oc1ccc2c3c1O[C@H]1[C@@H](O)CC[C@@]4(O)[C@@H](C2)N(CC2CCC2)CC[C@]314 | Succinate receptor 1 (SUCNR1, Homo sapiens, UniProt Q9BXA5) | β-arrestin recruitment, TANGO luminescence |  | concentration not given | relative to: basal luminescence | log2 fold change | 0.316 |
| Cl.O=C(N[C@H]1CC[C@@]2(O)[C@H]3Cc4ccc(O)c5c4[C@@]2(CCN3CC2CC2)[C@H]1O5)c1ccc(Cl)s1 | OPRK1 | radioligand binding | CHO membranes |  | relative to: Ki µ over Ki κ | selectivity ratio | 5.39 |
| Clc1ccc(COc2ccccc2CNCc2cccnc2)cc1 | aac | neomycin acetylation, inhibitor |  | added: neomycin |  | highest concentration without inhibition | > 200 µM |
| Cl.N#Cc1ccc(C(=O)N[C@H]2CC[C@@]3(O)[C@H]4Cc5ccc(O)c6c5[C@@]3(CCN4CC3CC3)[C@H]2O6)s1 | OPRK1 | radioligand binding | CHO membranes |  | relative to: Ki µ over Ki κ | selectivity ratio | 5.23 |
| Clc1cccc(COc2ccccc2CNCc2cccnc2)c1 | aac | neomycin acetylation, inhibitor |  | added: neomycin |  | highest concentration without inhibition | > 200 µM |
| NC(Cc1c[nH]c2ccccc12)C(=O)NCc1ccco1 (stereo not shown) | icl | thermal shift, SYPRO Orange |  | 1 mM, pH 7.5, 1 mM MgCl2, protein 20 µM |  | delta Tm | > 0.5 °C |
